Measured values collected from several papers.
Parts stem from different laboratories: compare values within a part only.
Sequence of UniProt P29376 (whole entry, looked up): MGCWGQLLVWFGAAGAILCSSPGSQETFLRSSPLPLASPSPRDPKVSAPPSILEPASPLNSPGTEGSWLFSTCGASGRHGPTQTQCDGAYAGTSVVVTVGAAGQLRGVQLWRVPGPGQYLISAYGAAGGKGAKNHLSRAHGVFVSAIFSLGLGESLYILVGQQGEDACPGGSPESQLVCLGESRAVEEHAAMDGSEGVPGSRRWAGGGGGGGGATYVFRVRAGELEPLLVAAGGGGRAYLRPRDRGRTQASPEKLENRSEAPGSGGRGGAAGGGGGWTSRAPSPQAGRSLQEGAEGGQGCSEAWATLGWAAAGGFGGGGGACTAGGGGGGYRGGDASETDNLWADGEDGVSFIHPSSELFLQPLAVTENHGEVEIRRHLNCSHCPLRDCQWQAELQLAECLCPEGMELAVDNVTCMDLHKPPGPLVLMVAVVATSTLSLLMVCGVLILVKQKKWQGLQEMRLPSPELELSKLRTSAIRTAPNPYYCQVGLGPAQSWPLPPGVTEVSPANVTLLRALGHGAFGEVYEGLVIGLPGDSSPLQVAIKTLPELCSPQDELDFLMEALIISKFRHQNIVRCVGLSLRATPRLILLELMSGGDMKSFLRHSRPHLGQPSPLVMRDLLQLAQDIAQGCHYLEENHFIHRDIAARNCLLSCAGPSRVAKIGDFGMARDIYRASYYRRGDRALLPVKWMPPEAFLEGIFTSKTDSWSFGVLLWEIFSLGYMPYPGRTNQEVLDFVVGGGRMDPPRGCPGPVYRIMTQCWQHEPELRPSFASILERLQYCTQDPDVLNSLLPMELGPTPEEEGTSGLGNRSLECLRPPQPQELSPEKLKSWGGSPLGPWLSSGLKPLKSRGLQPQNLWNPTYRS

Block 1 — technique: protein-binding microarray; molecule type: double-stranded DNA, one strand shown; matrix: in vitro; concentration: not given; direction: higher = stronger binding
Target: TATA-box-binding protein 1 (TBP1, Arabidopsis thaliana, UniProt P28147, residues 1-200, full length assumed)
Setting: k-mer, scored over probes, only values ≥0.25
Residues (chain): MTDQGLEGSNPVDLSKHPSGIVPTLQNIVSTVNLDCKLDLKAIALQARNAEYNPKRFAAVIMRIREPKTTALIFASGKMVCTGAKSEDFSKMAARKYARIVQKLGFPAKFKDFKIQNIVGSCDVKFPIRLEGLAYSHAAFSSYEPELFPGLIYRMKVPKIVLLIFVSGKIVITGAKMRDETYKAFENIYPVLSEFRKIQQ
Oligonucleotide	E-score
TAATGTA	0.291
ATTATTA	0.382
CTATAAG	0.327
ATATTTG	0.342
AACTTAA	0.318
AAGATAT	0.305
CCATATA	0.41
ATTGATA	0.327

Block 2 — technique: protein-binding microarray; molecule type: double-stranded DNA, one strand shown; matrix: in vitro; concentration: 0.8 µM; setting: whole 60-bp probe, no competitor; direction: higher = stronger binding; constant ends, left off below: … GTCTTGATTCGCTTGACGCTGCTG
Target: Centromere-binding protein 1, full length, N-terminal tag (CBF1, Saccharomyces cerevisiae, UniProt P17106, residues 1-351)
Sequence of UniProt P17106 (whole entry, looked up): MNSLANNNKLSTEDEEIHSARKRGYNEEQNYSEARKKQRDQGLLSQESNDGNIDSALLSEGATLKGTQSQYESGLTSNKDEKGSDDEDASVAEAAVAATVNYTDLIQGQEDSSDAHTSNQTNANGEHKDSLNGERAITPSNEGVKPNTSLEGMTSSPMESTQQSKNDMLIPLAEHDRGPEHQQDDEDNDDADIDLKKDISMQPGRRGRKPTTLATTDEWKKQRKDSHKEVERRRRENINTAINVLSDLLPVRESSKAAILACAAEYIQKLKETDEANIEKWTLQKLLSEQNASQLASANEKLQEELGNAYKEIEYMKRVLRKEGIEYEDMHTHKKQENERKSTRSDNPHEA
Oligonucleotide	fluorescence intensity [a.u.]
GAAATATTTTACGAGCACGCTAACACAATGCTTTAG	573
CTACCGGGTGCGCGCCACGCAATATATAAAACGTTC	489
GAAGTCCTTTAATCTCAGCTGATATCGTCCTTCTAG	581
CTAAGCTTCAATAAATGCGTGACTGGCTATAGTTTC	844
GAACCCATTAACTCAAACGTGTATATAAATTGATAG	650
CCTAACTACTATAGTGTGGTGATATAGCTTCGTACA	506
GAAAGTATTAGCCAACACGTTATCGATACATTTTAG	615
CTAAGCGGCTGTCGTCACGCACCATGGGTACCATTC	627

Block 3 — effect on: peptide-MHC binding; molecule type: peptide; direction: direction not given
Target: HLA class I histocompatibility antigen, A alpha chain, allele A*80:01 (Homo sapiens, UniProt P04439)
Sequence	z-score of log IC50
PIPVGDIYK	0.38
DEMVCKWLL	0.38
FGALFMWLL	0.38
CSDSDGLAP	0.38
FHVNPAFVL	0.38
CLVSGLSSL	0.38
FLAFFSNGV	0.38
AINGFVLPK	0.38
FRRVAHSSL	0.38
CASSSDWFY	0.38
FHKRDMRLL	0.38
AENCYNLEI	0.38
FHERGYVKL	0.38
ATKDSFQSF	0.38
AVDWYQQRI	0.38
AVGVVCTGL	0.38
FPDGKPFTL	0.38
FTFERSKIK	0.38
FMKSRVYSI	0.38
GIVCYNEEV	0.38
AMPKTIYEL	0.38
FLFDRLTNG	0.38
AGGWVLWKV	0.38
FHARFVQAL	0.38
FTWQHNYYL	0.38

Block 4 — technique: RNA Bind-n-Seq; molecule type: RNA; matrix: in vitro; concentration: 365 nM; reference: no-protein control; direction: higher = stronger binding
Target: RNA binding protein fox-1 homolog 2, RRM domain, GST-SBP tag (RBFOX2, Homo sapiens, UniProt O43251-10, residues 100-194)
Setting: natural RNA segment, single round, ends assumed
Constant ends, left off below: GGGAGUUCUACAGUCCGACGAUC … UGGAAUUCUCGGGUGCCAA
Residues (chain): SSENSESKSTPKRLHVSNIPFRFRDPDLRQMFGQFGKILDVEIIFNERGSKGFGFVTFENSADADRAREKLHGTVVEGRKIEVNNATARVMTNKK
Oligonucleotide	RBNS enrichment (R)
AUGUUAUCCACUCUGUUGCUUUUGUCUGGAAAACUCUACAGUGUUUGUGGGAUGUCCCCAAAGGAAAGCUAUGUUCUAAUUUUAUCAUUUCCAUCUGUCUGGUUAUGUCA	1.2
ACUCAACAACCUCCCACCCCUGUCCUGCUGCAUGGUCCGGAGUCUGGGACCUACUUUGUUUUUUGUUAUUUAUGACCUUGUUUAAAGAAAAUAAAUAUCUCCCAACCUUU	7.1
UGGGCCCACUGAUUUCCAGCCCCACCAUGUGUGCUGUUUUCAGAUGUGAUUGAGGGGUGUUCUGCCCUGCCUCCACUGUCACAGCCUUUAAUAAAGAUGUGAAUCUUGAA	0.3
UGUUUUGAAUCUAUAGAUGAGUCAAGGAAGAACUGCCAUCUUAACAGUAUUGGGUCUUCCGAUUUAUAAACAUGGAAUGCCUCUCCAUUUAUUUUGAUCUUUAAUUUCUC	2.86
GUGAGAUCAACAAAUGAGACCCUGGGGACAGCCCCCGAAGAUUAGGAAGAUGCUAAUCCACACAGAAAUGGCAGCCCUUGGUCUGGAAAGGGAAGGCUGCGGGAAUCAUG	0.377
AUUAACAAAAUGUAAUUUCAGAUUAUUCGUUUAUAGGCUUUAUAAUUUUAUGGUUUUUUUUUAAAAUCGUGUUUUGUCACAGAUGCCCCUAGUGUUUGUGCUAACCUAGU	0.599
AAAAUAAAAAGUUUGUCCUGAACCUUUUACAGAUUUGCCAUAACAGCAUUAAAGUGAUUGAACAGAAGCGGAAGUGUCCGGGGAUGUUUCUGUCCCCCUCGGCAGAGGCU	0.487
UGCAGGGAGGCCAUGCCCGCCACCCCUCUUGUUCUGGAUCCCUGCUCCCCUCUGGGUGUGUGGGUGUGUGUGUACGUUUGGGUGUGUGUGUAUGCGCGUGUGUGCGUGUG	0.874

Further values, each from its own experiment
SMILES	target	test	conditions	measurement	value
CCN(CC)CCNC(=O)c1c(C)[nH]c(/C=C2\C(=O)Nc3ccc(F)cc32)c1C	Leukocyte tyrosine kinase receptor (LTK, Homo sapiens, UniProt P29376)	enzyme activity, inhibitor, radiometric	0.5 µM	remaining activity	34.4%

Excerpt of the above (block 4):
Oligonucleotide	RBNS enrichment (R)
UGUUUUGAAUCUAUAGAUGAGUCAAGGAAGAACUGCCAUCUUAACAGUAUUGGGUCUUCCGAUUUAUAAACAUGGAAUGCCUCUCCAUUUAUUUUGAUCUUUAAUUUCUC	2.86
UGCAGGGAGGCCAUGCCCGCCACCCCUCUUGUUCUGGAUCCCUGCUCCCCUCUGGGUGUGUGGGUGUGUGUGUACGUUUGGGUGUGUGUGUAUGCGCGUGUGUGCGUGUG	0.874
AUGUUAUCCACUCUGUUGCUUUUGUCUGGAAAACUCUACAGUGUUUGUGGGAUGUCCCCAAAGGAAAGCUAUGUUCUAAUUUUAUCAUUUCCAUCUGUCUGGUUAUGUCA	1.2
